Experimental data from different studies.
Protocols differ between the studies behind these lines. Numbers after ± are the reported error.
Cell line: HCT-116

O=C(NOC[C@H](O)CO)c1ccc(F)c(F)c1Nc1ccc(I)cc1F has a viability of 19% (5 µM, 72 h).
With NC(=O)NOCCCCCCCCCCCCCC[P+](c1ccccc1)(c1ccccc1)c1ccccc1.O=C([O-])C(F)(F)F the cell confluence was 28.6% (cell growth, live-cell imaging; 1 µM, control at 90% confluence).
Under “cells in G2/M phase”, O=[N+]([O-])c1cc(I)c(O)c(C=NNc2ccccc2)c1 is recorded as 32.3% (cell cycle analysis; IC50, 24 h).
For Cn1cnc2c(F)c(Nc3ccc(Br)cc3F)c(C(=O)NOCCO)cc21, the viability was 83.2% (0.1562 µM, 72 h).
For O=[N+]([O-])c1cc(Br)c(O)c(C=NNc2ccc(C(F)(F)F)cc2)c1, the TNF-α level was 66.5% (ELISA; culture supernatant; IC50, added: LPS).
NC(=O)NOCCCCCCCCCCCCCCCC[P+](c1ccccc1)(c1ccccc1)c1ccccc1.O=C([O-])C(F)(F)F gave a cell confluence of 11.6% (cell growth, live-cell imaging; 1 µM, control at 90% confluence).
For COc1nc(NCc2cn(-c3ccc(C(=O)Nc4ccccc4)cc3)nn2)nc(OC)n1, “apoptotic cells Early” read 18.4% (annexin V-FITC/PI; IC50, 24 h).
For NC(=O)NO, the cell confluence was 17.3 ± 3.35% (cell growth, live-cell imaging; 300 µM, control at 90% confluence).
Under “apoptotic cells Late”, COc1nc(NCc2cn(-c3ccc(C(=O)Nc4ccc(C(F)(F)F)cc4)cc3)nn2)nc(OC)n1 is recorded as 19.5% (annexin V-FITC/PI; IC50, 24 h).
O=P1(C2CCCCC2)CCCCC1 — result for “reduction of cell number”: 29% (trypan blue; IC50, 72 h; reference: untreated).

Some of these lines once more:
For NC(=O)NO, the cell confluence was 17.3 ± 3.35% (cell growth, live-cell imaging; 300 µM, control at 90% confluence).
